Results from different studies.
Lines come from different studies, so protocols differ.
Target: Ephrin type-A receptor 5 (EPHA5, Homo sapiens, UniProt P54756)
Sequence of UniProt P54756 (whole entry, looked up): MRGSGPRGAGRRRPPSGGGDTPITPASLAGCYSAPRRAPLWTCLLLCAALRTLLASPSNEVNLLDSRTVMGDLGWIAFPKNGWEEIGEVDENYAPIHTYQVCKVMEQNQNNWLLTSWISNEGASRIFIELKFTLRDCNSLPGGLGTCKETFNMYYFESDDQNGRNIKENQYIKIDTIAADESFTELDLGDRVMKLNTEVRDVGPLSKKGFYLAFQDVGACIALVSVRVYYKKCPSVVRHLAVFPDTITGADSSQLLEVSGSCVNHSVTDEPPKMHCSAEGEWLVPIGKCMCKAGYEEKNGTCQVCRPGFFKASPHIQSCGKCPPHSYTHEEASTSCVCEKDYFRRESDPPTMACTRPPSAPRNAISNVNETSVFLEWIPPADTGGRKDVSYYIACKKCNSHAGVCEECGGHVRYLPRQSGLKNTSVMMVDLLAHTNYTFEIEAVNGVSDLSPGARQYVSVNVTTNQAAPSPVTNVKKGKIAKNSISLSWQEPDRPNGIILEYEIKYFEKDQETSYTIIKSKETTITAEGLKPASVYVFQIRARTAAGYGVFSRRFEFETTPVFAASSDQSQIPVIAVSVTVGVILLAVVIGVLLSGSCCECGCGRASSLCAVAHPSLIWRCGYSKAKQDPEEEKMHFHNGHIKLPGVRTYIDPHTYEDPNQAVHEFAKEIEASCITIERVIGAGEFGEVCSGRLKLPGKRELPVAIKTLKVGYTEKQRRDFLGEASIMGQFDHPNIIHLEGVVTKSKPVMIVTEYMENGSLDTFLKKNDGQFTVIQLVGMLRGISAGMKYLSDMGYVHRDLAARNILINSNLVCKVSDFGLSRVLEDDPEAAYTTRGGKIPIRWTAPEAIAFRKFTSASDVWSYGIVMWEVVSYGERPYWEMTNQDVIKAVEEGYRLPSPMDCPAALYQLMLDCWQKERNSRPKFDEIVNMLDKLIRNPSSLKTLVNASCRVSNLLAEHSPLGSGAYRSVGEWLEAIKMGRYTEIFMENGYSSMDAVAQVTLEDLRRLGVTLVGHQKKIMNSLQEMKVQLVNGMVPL

SMILES | test | setting | scale | endpoint | result
C#Cc1cc(-c2cc(Nc3nc(N[C@@H](C)c4ccc(F)cn4)ncc3Cl)n[nH]2)ccc1C=O | enzyme activity, inhibitor | 0.2 µM |  | inhibition | 26.5%
CNc1ncc2c(/C=C/C(=O)N3CCC(OC)CC3)nn(Cc3cccc(C(F)(F)F)c3)c2n1 | kinase activity, inhibitor | 1 µM | baseline: untreated control | remaining activity | 102%
COc1cc(F)ccc1-c1ncnc(Nc2cccc(C[S@](C)(=N)=O)c2)n1 | kinase activity | 10 µM, added: 10 µM ATP |  | remaining activity | 91%
Cc1cc(Nc2cc(N3CCN(C)CC3)nc(Sc3ccc(NC(=O)C4CC4)cc3)n2)[nH]n1 | kinase activity, KinaseProfiler | 0.03 µM, species human | baseline: control | remaining activity | 98%
C=CC(=O)N1CCC(C(=O)NCC(=O)N2CCN(c3nc(-c4cnc(N)nc4C(F)F)nc(N4CCOCC4)n3)CC2)CC1 | KINOMEscan | 1 µM |  | remaining binding | 100%
CCCOc1ccc(OC)c(F)c1C(=O)c1ccc(C(=O)N[C@@H]2CNC[C@H]2NC(=O)c2ccc3[nH]ncc3c2)cc1 | enzyme activity | 10 µM |  | remaining activity | 92%
C1=C/COCc2cc(ccc2OCCN2CCCC2)Nc2nccc(n2)-c2cccc(c2)COC/1 |  | concentration not given |  | percent of control | 100%
O=C(NC1CCC1)c1ccc2nc(-c3cccc(NS(=O)(=O)NCCN4CCCCC4)c3)cn2c1 | enzyme activity | 10 µM |  | remaining activity | 100%
C=CC(=O)N1CCC(COCC(=O)N2CCN(c3nc(-c4cnc(N)nc4C(F)F)nc(N4CCOC[C@@H]4C)n3)CC2)CC1 | KINOMEscan | 1 µM | baseline: DMSO control | remaining binding | 100%
CCN(CC)c1ccc(C2=NNC(=O)CC2C)cc1[N+](=O)[O-] (centres unmarked) | enzyme activity, inhibitor | 10 µM | baseline: vehicle | remaining activity | 94%
C[C@@H](c1ccc(-n2cnc3c(N)ncnc32)cc1)N1CCc2nn(C)c(Cc3ccccc3)c2C1=O | KINOMEscan | 0.1 µM | baseline: DMSO control | remaining binding | 97%
